Results from different studies.
Every numbered part comes from another study and shows a few of its results, in no order. Positions count from the first letter of the parent shown.

Series 1 — method: DHFR PCA, deep sequencing; sample: yeast; with: (+)-ABA 17 µM; baseline: wild-type fitted maximum; direction: higher = stronger binding; endpoint: relative binding score
Target: ABI1, truncated, D143A, DHFR fusion (Arabidopsis thaliana)
Notes: methotrexate growth selection, single substitutions
Starting sequence: PYL1, truncated, DHFR fusion (Arabidopsis thaliana); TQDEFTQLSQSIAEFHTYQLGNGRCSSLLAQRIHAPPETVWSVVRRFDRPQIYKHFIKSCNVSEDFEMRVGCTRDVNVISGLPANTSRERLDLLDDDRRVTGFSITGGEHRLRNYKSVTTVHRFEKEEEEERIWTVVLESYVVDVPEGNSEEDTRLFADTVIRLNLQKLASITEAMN; partner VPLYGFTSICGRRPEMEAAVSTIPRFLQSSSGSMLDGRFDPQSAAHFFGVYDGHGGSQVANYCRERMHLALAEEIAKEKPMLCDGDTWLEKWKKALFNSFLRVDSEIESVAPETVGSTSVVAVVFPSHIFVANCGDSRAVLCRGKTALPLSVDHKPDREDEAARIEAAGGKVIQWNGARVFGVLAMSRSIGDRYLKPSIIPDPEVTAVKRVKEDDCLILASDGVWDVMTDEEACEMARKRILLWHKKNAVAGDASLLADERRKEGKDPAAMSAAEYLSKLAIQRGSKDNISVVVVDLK
T160Q: 36.7%
I79R: 54.7%
W41V: -1.2%
S59A: 79.7%
F124W: 98.8%
I105Q: -25.6%
F47K: -7.93%
D144W: -4.68%
T160N: 60.7%
D95Y: 9.24%
V145T: 62%
T106N: 33.6%
G102K: 27.9%
R155H: 24%
C72T: 67.2%
F15L: 56.2%
V43H: 23%
A158M: 55.6%
S42G: 80.2%
D65K: 79.8%
E14Y: 36.1%
T119Y: -2.23%
V137M: -6.16%
V137L: 28.1%
Y141L: -11.9%

Series 2 — method: RNA Bind-n-Seq; form: RNA; sample: in vitro; tested at: not given; baseline: input RNA pool; direction: higher = stronger binding; endpoint: bound/input enrichment
Target: RING finger protein unkempt homolog, zinc fingers 1-6, GST-SBP tag (UNK, Homo sapiens, UniProt Q9C0B0, residues 30-357)
Notes: RNA with constant flanks, human and mouse sites, ends assumed
Shared flanks, not repeated: GGGAGUUCUACAGUCCGACGAUC … CAACAGAGGAUUGAGCAUCA
Residues (chain): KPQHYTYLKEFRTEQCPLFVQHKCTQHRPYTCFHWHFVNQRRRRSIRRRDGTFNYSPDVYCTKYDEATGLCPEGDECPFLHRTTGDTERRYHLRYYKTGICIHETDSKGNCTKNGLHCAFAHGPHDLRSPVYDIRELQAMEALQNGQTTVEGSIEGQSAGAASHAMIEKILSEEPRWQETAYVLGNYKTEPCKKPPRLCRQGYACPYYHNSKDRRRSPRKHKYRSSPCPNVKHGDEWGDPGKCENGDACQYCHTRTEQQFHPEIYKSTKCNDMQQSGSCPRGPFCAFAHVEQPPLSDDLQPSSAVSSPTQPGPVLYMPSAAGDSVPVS
CUCAGGAUGUCUUCAUCACAUUUUGCCAGUCGACACAGGAAGGAUAUAAGUACUGAAAUGAUUAGAACUAAAAUUGCUCAUAGGAAAUCACUGUCUCAGAAAGAAAAUAGACAUAAGGAA: 3.14 ratio
GAUAUGAAACAUUGGCCCUUUAUGGUGGUGAAUGAUGCUGGCAGGCCCAAGGUCCAAGUAGAAUACAAGGGAGAGACCAAAAGCUUCUAUCCAGAGGAGGUGUCUUCUAUGGUUCUGACA: 0.288 ratio
UGUCUUGAUGACACUACAGUAAAGUUUGAAAUAUGGGAUACAGCUGGUCAAGAACGAUACCAUAGCCUAGCACCAAUGUACUACAGAGGAGCACAAGCAGCCAUAGUUGUAUAUGAUAUC: 2 ratio
GCAAGGCAGAGCCACCAGAAACGUACACCUGAUUUUCAUGACAAAUACGGUAAUGCUGUAUUAGCUAGUGGAGCCACUUUCUGUAUUGUUACAUGGACAUAUGUAGCAACACAAGUCGGA: 0.237 ratio
AAAACUACUAUUUUUAGUAUACUUGUUUACGUAAAUGCUGAUUGGAAAUAUUUAAAUGACUAUAGAUCUGAUUCUUUCUUUUCCUUUGGAAACUGGGAUUAAUGUAUGCUCUAGAUCCAU: 0.521 ratio
GAUCCUGAAUUUGCAGAAGAUCCAAGAAUGGUGAAUGUCGACCUCAUCACUCUUUCUUACACUUUUUUUGAAGCAAAGGAAGGGCACAAGUUGCCAGUUCCAGGCUAUAAUUGAAGCAGC: 0.0884 ratio
GCAGGGCAAGAGGAUUAUGACAGACUACGACCGCUAAGUUAUCCACAGACAGAUGUUUUUCUAGUAUGUUUCUCAGUGGUCUCUCCAUCCUCAUUUGAAAAUGUGAAAGAAAAGUGGGUG: 0.376 ratio
GUCAGCCAAAGCUGGCCCCUGAACCACUGUGUGCCCAUUUCCUAGGGAAGGGGAAGGAGAAUAAACAGAAUAUUUAUUACAAAUGUUAGAAUAUAUUUCUUAUACUAGGAAUCUCAUUUG: 0.862 ratio
CCCACGCCCUCCCUCUCCCAGGCCCGAGAUGUGACCCACCAGUGCCUUCUGUCUGCUCGUUAGCUUUAAUCAAUCAUGCCCUGCCUUGUCCCUCUCACUCCCCAGCCCCACCCCUAAGUG: 5.98 ratio
GUAUCUGACUAUGCCCAGAUGGAUCGAGUGCUUCGAGAGGAGAGAGCCUAUAUUUUAAAUUUGGUGAAGCAAAUUAAGAAAACAGGAUGUAAUGUCCUUCUCAUACAGAAGUCUAUCCUG: 0.131 ratio
GUAGCGCUUGCAGCAUGGCUGACCAACUGACUGAAGAGCAGAUUGCAGAAUUCAAAGAAGCUUUUUCACUAUUUGACAAAGAUGGUGAUGGAACUAUAACAACAAAGGAAUUGGGAACUG: 0.319 ratio

Series 3 — target: CCNE2, cyclin fold, Cln2 fusion (human); method: yeast growth competition, sequencing; sample: yeast; notes: strong parent motif; baseline: not given; direction: higher = stronger binding; endpoint: normalised enrichment score
Starting sequence: WEE1 docking peptide (human); HKTFRKLRLFDTP
F10A: 1.01
K2T: 1.22
R5A L7A: 1.11
H1D: 1.55
H1I: 2.76
L7H: -0.128
F10P: 0.549
P13K: 0.895
F4R: 1.05
R5K: 0.168
F4M: 1.11
F4T: 1.07
L9I: 0.563
K6P: 0.901
R5Y: 1.04
H1K: 0.938
D11G: 0.0928

Series 4 — target: FOSL2, bZIP domain (human); method: DHFR protein complementation; sample: yeast; baseline: wild-type JUN-FOS pair; direction: higher = stronger binding; endpoint: binding fitness
Notes: single substitutions, most at no-binding floor
Starting sequence: JUN, bZIP domain (human); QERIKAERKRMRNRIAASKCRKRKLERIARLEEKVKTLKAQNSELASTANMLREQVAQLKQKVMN; partner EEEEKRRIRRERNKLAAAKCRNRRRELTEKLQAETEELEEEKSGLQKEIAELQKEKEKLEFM
L59W: -1.11 natural log
E54V: -0.147 natural log
R53Y: -0.611 natural log
Q41R: -0.121 natural log
A29C: -0.0875 natural log
A29M: -0.326 natural log
E44Q: -0.00503 natural log
V56F: -1.24 natural log
A57T: -0.0602 natural log
K39H: -0.0987 natural log
L31Y: -0.109 natural log
T48I: 0.0258 natural log
L45P: -1.44 natural log
E54H: -0.0288 natural log
L45M: -0.0888 natural log
A49G: -0.579 natural log
E44G: -0.0913 natural log
E33M: -0.033 natural log
K36Y: -0.0707 natural log
R30I: 0.0552 natural log
N42K: -0.118 natural log
K36E: 0.0228 natural log
T48F: 0.0465 natural log
N42S: -0.473 natural log
K34L: 0.0684 natural log

Series 5 — method: RNA Bind-n-Seq; form: RNA; sample: in vitro; tested at: 365 nM; baseline: no-protein control; direction: higher = stronger binding; endpoint: RBNS enrichment (R)
Target: RNA binding protein fox-1 homolog 2, RRM domain, GST-SBP tag (RBFOX2, Homo sapiens, UniProt O43251-10, residues 100-194)
Notes: natural RNA segment, single round, ends assumed
Shared flanks, not repeated: GGGAGUUCUACAGUCCGACGAUC … UGGAAUUCUCGGGUGCCAA
Target sequence (chain): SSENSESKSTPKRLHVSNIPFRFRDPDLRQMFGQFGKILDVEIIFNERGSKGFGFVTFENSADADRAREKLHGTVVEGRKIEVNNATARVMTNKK
GAGCCGGCAGCAGUGAGGCAUUCAUUGUCUGUGUUGCGGUGUAUUCCCAGCUUCAGUGCUCUUUUCCUUUUUGCCUGAAAUGUUUAUGCUUCUCUGCAGCCAGUCCUCUA: 0.543
ACCACUACACUUUUAGAAAGACAGAAAAAUGUAAGAAUUUGUUUUUACCAUAAUGAGUCUUAAGUAGGUUCAUGAUCUACAUUGGGGCCUGGGAUUAUUUUUUUAAUUUU: 0.602
AACUGCAAUCUGAUUGAUUAUAUUACAGAAUACAUACAAAAAAACAAAGUUGUCUUACCUGUCAGUGUAUGAAGCACUUUGCUCCUUAAGACAGACACCUUGGAACUUUC: 0.348
GUGCUGGUGCAAGGACUUCUGUUCCAAAGGCUGGGAAAAACUAAGCUGUCCCAGCCCCUCCCAUUUCUUGGGCAGGGCUCUUUUCCUGUUGUGUCUUCCCCCAGGGCCUG: 0.349
GAGCUGUGUAUAGGUAGAAUAAAAAAUUCCUUUCAUAUCGUUAUUGUACAAAAAGUAAAGAGUAUCCUAAAGAUUGUAUUCAUUGUAAUCAAGUAAUGCAAUCAUCUCUC: 0.414
CAGCAGAAGCUUGUAGGAUGAGUGUGUCGGGGCUUAAAUACUAGACAGUUCCAAUGAGAUAACACUAUCAGCUUGUCUGGUAGAGCACCCCCUGCCUCACAUGGGGAGCA: 0.649
CAGCCUCCCUGAAACACAGCAGCCCCCCUUACUAAUCACAGGCACAAAUGGAGAGGAAGGGGUCCCUGUGGAGGACCCAACCACAGAAUCUGAGGUGUUCAGAAUCUGAC: 0.51
GGUUGCAACCUGGCAACAUUGAAUCCACCACCCUUGGGCUCCCUCUGGAAGCCCCAGCACCGGGGGGCUUUUGGGCACAGGGUCAGUGGUAGCCAUCUUAGACACUGACA: 0.714
GGGCAUCCCUGAGCUAAUCCCCACCCUCCAGUACAUUCCUAGGUCCUGGUCAUUUAGUUCAGAACAGGUGUCCUUUCUCUGUGACCAAACUUACUUUCUCUAAAAUUCCU: 0.26
AUACCCCACUGCUGCCCGACACUGCCCUUUAGCUGCAGAGCUGGAUUAGCUGUUGACCAUUUGAUGCUGUUGUCUGUCUGGCAGGGACUGAAUGACCUGAUGUCAGAUUU: 0.416
AAAUCUGUGAUAAAAAGAAAGACUAAAGAAAUUUUCCUAAAGGACCCCAUCAUUUAAAAAAUGGACCUGAUAAUAUGAAGCAUCUUCCUUGUAAUUGUCUCUGACCUUUU: 0.492
UGUGGGUGGCAUGAUUGUACCCUCCUGGCUCUGUAUUUUCUCACUCCUCUGUCCUUCUAUAACUAGGUUCCUGUUCUUACACACCUGUCCACCGAAUGUCACUCACUGAG: 1.35

A few entries again (series 3):
F10P: 0.549
P13K: 0.895
F4R: 1.05
R5K: 0.168
F4M: 1.11
F4T: 1.07
L9I: 0.563
K6P: 0.901
R5Y: 1.04
H1K: 0.938
D11G: 0.0928
